Measured values pooled from the literature.
Each line is one published result; not all experiments were run side by side. “And” joins repeats or separate records; there may be more than shown. ± marks the error that the study gave.
Trypanothione synthetase: Trypanothione synthetase (Leishmania infantum, UniProt A4I2Z3)
HTR3A: 5-hydroxytryptamine receptor 3A (HTR3A, Homo sapiens, UniProt P46098)

SMILES	target	test	test system	setting	inhibition
O=C1Cc2cc(-c3csc(NCCc4cccs4)n3)cc3c2N1CCC3	Trypanothione synthetase	enzyme activity		25 µM	74.4 ± 18.1%
CC(C)c1cc(C(=O)N2Cc3ccc(CN4CCN(C)CC4)cc3C2)c(O)cc1O	Hsp90	tracer binding, autoradiography	human and mouse tumour sections	10 µM, together with: [11C]HSP990	> 85%
COc1ccccc1OCCNCC(O)COc1cccc2[nH]c3ccccc3c12 (stereo not shown)	Trypanothione synthetase	enzyme activity, inhibitor, phosphate release		25 µM	15.2 ± 12.7%
C#Cc1cc(-c2cc(Nc3nc(N[C@@H](C)c4ccc(F)cn4)ncc3Cl)n[nH]2)ccc1C=O	High affinity nerve growth factor receptor (NTRK1, Homo sapiens, UniProt P04629, A608D)	enzyme activity, inhibitor		0.2 µM	102%
C[C@@H]1CCO[C@H]2Cn3cc(C(=O)NCc4ccc(F)cc4F)c(=O)c(O)c3C(=O)N12	Solute carrier family 22 member 3 (SLC22A3, Homo sapiens, UniProt O75751)	transport	MDCK-II, transfected	100 µM, together with: MPP+ 2 µM	7.27%
Cc1cc2c(cc1N1C(=O)c3cccc4c(CCCO)ccc(c34)C1=O)n(C)c(=O)n2C (racemic)	Transcription intermediary factor 1-alpha, PHD-bromodomain (TRIM24, Homo sapiens, UniProt O15164)	binding, BROMOscan		100 nM, PHD-bromodomain	81%
CC[C@@H]1[C@H](F)C(=O)N[C@@H]1COc1nccc2cc(C(N)=O)c(OC)cc12	Serine/threonine-protein kinase STK11 (STK11, Homo sapiens, UniProt Q15831)	ATP-site probe binding, ActivX profiling	THP-1 cell lysate	0.2 mM, Lys2 site	34.8%
C[C@H]1[C@H](OC(=O)CCC(=O)O)O[C@@H]2O[C@@]3(C)CC[C@H]4[C@H](C)CC[C@@H]1[C@@]24OO3	Non-structural polyprotein pORF1, RNA-dependent RNA polymerase (Hepatitis E virus genotype 1, UniProt P33424)	polymerase activity		4.8 µM	38.4%
Cc1nc(Nc2ncc(C(=O)Nc3c(C)cccc3Cl)s2)cc(N2CC[C@H](O)C2)n1	Ephrin type-B receptor 1 (EPHB1, Homo sapiens, UniProt P54762)			0.01 µM	~91%
Cc1ccc(OC[C@@H]2CN(CCN3CCc4ccccc43)CCO2)cn1	HTR3A	radioligand binding		concentration not given, together with: [3H]GR65630	-0.4%
CN1CCN(c2cc(-c3ccncc3)c(-c3ccc4ccccc4c3)nn2)CC1	Glucagon-like peptide 1 receptor (GLP1R, Homo sapiens, UniProt P43220)	antagonist, FLIPR		10 µM	31%
COc1ccc2c(c1)C(=O)N(CCN1CCN(c3ccccc3OC)CC1)C2	HTR3A	radioligand binding		concentration not given, together with: [3H]GR65630	-19.5%
O=C(Nc1cccc2c(=O)cc(-c3nnn[nH]3)oc12)c1ccc(OCCCCc2ccccc2)cc1	LRRC8A/LRRC8C (Homo sapiens, UniProt Q8IWT6+Q8TDW0, M48D/T48D)	ion current, whole-cell patch clamp	HCT LRRC8-/- cells	1 µM, +100 mV, T48D/M48D heteromers	1.22% and 1.28% and 8.02%
Cc1nn(-c2nc3ccccc3[nH]2)c(O)c1C(c1ccccn1)c1c(C)nn(-c2nc3ccccc3[nH]2)c1O	Cyclic GMP-AMP synthase, catalytic domain; with DNA (CGAS, Homo sapiens, UniProt Q8N884)	liquid-liquid phase separation, inhibitor		12.5 µM	57.4%
Cc1ncccc1OC[C@@H]1CN(CCN2CCc3ccccc32)CCO1	HTR3A	radioligand binding		concentration not given, together with: [3H]GR65630	-15.2%
N[C@@H](CCC(=O)O)C(=O)O	NMDA receptor agonist site (rat)	radioligand binding	rat brain	1×10 µM	100%
CNc1ccc(-c2nc3ccc(O)cc3s2)cc1	Amyloid-beta precursor protein, amyloid-beta (APP, Homo sapiens, UniProt P05067)	binding, competition binding	amyloid-beta aggregates	1000 nM, together with: tritiated amyloid ligand	92.9% and 84%
CNc1cc(Oc2cc(C(=O)Nc3cc(N4CCN(C)CC4)cc(C(F)(F)F)c3)ccc2C)ncn1	Serine/threonine-protein kinase 26 (STK26, Homo sapiens, UniProt Q9P289)	kinase activity		1 µM	-27.6%
COc1ccc(F)cc1C(=O)NCc1ccc(-c2nn([C@@H](C)C(F)(F)F)c(N)c2C(N)=O)cc1	Phosphatidylinositol 4,5-bisphosphate 3-kinase catalytic subunit beta isoform (PIK3CB, Homo sapiens, UniProt P42338)	target engagement, competitive chemoproteomics	human PBMCs	1 µM	31.5%
Cc1nn(-c2nc3ccccc3[nH]2)c(O)c1C(c1ccccc1C(=O)O)c1c(C)nn(-c2nc3ccccc3[nH]2)c1O	Cyclic GMP-AMP synthase (CGAS, Homo sapiens, UniProt Q8N884)	enzyme activity, inhibitor, pyrophosphatase-coupled		100 µM, 1.5 h, together with: HT-DNA	81.2%
OO	Histone acetyltransferase GCN5, with Ada2 and Ada3 (Saccharomyces cerevisiae S288c, UniProt Q03330)	enzyme activity		1 mM, together with: Gcn5-Ada2-Ada3 complex, with DTT	22 ± 10%
c1cncc(OC[C@@H]2CN(CCN3CCc4ccccc43)CCO2)c1	HTR3A	radioligand binding		concentration not given, together with: [3H]GR65630	3.2%
COc1cc(C(=O)NS(=O)(=O)c2ccccc2C)ccc1Cc1cn(C)c2ccc(NC(=O)OC3CCCC3)cc12	LRRC8A/LRRC8C (Homo sapiens, UniProt Q8IWT6+Q8TDW0, L134K/L136K)	ion current, whole-cell patch clamp	HCT LRRC8-/- cells	1 µM, +100 mV, L134K/L136K heteromers	24.3% and 9.21% and 10.1% and 47.3% and 23.4%
Clc1cncc(OC[C@@H]2CN(CCN3CCc4ccccc43)CCO2)c1	HTR3A	radioligand binding		concentration not given, together with: [3H]GR65630	3.6%
NC/C(=C\F)COc1cccc(Cn2c(=S)[nH]c(=O)c3[nH]cnc32)c1	Amine oxidase [copper-containing] 3 (AOC3, Homo sapiens, UniProt Q16853)	H2O2 production, Amplex Red		0.1235 µM, recombinant human enzyme	96.8%
